Experimental data of several laboratories.
Parts stem from different laboratories: compare values within a part only.

Sample 1 — technique: protein binding microarray; form: double-stranded DNA, one strand shown; sample: in vitro; concentration: not given; relative to: not given; direction: higher = stronger binding
Target: Histone acetyltransferase KAT6A, both winged helices, GST fusion (KAT6A, Homo sapiens, UniProt Q92794, residues 1-181)
Notes: 8-mer, flanks averaged, mean of 2 arrays, mostly near background
Target sequence (chain): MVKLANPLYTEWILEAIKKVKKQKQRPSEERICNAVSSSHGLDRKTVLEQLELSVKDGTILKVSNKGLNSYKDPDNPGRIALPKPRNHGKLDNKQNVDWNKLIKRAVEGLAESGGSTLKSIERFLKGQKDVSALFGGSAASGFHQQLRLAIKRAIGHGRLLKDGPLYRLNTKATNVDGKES
With `CCGACACG` the E-score was 0.14.
`ATGCAAGG` has an E-score of -0.151.
The E-score of `ACATATGA` is reported as -0.14.
With `CTTGACCA` the E-score was -0.254.
The E-score of `CCAAGAGC` is reported as -0.143.
`AAACATGT` gave an E-score of 0.0801.
`GGGCGACC` has an E-score of -0.0178.
With `GTAGACAC` the E-score was -0.00902.
`CAAGTTAC` has an E-score of 0.0359.
`CCGGTGGA` has an E-score of 0.0798.
The E-score of `CCCAAAGA` is reported as -0.264.
`ATTGAACC` gave an E-score of -0.0384.
The E-score of `GAGAAGCC` is reported as -0.0148.
`ATGTTGGG` has an E-score of -0.0921.
The E-score of `GAGGGTCC` is reported as -0.106.
The E-score of `ACAGCCGC` is reported as 0.207.
With `TATCAATA` the E-score was -0.067.
`ATGAGTTC` gave an E-score of -0.0738.
The E-score of `GTCTACAA` is reported as -0.0825.
For `AGTTAGCC`, the E-score was -0.0521.
With `ACCTGAAA` the E-score was 0.0017.
`ACCATATG` gave an E-score of -0.137.
With `AAAAGTCT` the E-score was -0.19.
For `CTAGACAA`, the E-score was -0.178.
`AACGTAAG` has an E-score of -0.0779.

Sample 2 — technique: universal PBM; form: double-stranded DNA, one strand shown; sample: in vitro; concentration: 600 nM; direction: higher = stronger binding
Target: Sal-like protein 4, full length isoform A (SALL4, Homo sapiens, UniProt Q9UJQ4, residues 1-1053)
Sequence of UniProt Q9UJQ4 (whole entry, looked up): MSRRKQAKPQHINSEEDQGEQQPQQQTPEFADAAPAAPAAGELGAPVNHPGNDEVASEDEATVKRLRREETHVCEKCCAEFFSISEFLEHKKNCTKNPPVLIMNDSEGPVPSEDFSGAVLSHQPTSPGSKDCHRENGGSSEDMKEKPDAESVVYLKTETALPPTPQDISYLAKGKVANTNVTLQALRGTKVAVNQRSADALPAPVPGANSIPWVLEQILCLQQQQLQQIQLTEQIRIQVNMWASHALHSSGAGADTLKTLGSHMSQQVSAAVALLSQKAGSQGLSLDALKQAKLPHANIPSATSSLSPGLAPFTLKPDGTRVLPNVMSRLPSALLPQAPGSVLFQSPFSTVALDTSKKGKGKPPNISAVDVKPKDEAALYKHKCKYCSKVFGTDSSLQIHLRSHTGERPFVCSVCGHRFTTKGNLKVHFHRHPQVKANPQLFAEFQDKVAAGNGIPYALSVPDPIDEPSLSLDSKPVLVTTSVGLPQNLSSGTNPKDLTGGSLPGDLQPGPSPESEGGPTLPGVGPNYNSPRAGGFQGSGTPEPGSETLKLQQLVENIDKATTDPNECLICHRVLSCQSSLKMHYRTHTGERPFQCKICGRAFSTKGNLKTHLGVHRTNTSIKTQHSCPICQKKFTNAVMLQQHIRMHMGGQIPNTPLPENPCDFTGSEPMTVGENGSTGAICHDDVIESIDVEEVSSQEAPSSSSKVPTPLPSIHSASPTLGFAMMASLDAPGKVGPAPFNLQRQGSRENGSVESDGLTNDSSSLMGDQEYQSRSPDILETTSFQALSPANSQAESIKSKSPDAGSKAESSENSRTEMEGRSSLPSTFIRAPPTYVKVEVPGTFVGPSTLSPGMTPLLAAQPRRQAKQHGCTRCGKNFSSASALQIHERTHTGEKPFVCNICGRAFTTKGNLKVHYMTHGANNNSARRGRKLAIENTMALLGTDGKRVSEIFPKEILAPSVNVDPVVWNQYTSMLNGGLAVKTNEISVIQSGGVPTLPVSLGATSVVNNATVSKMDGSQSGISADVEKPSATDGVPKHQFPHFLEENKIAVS
Notes: 8-mer, flanks averaged, mean of replicates
The E-score of `GCGGTGAA` is reported as -0.142.
`GTATCTAA` gave an E-score of 0.268.
`AGAACCTC` has an E-score of -0.1.
The E-score of `AACATGCA` is reported as 0.246.
`CAGCCGTC` gave an E-score of -0.334.
`GAACGTAC` gave an E-score of -0.156.
With `AATTGAGT` the E-score was 0.162.
`AGCGCGCG` has an E-score of -0.249.
For `ATCAGCTC`, the E-score was 0.0249.
`ACACCAAA` gave an E-score of 0.152.
For `CGCCCTCC`, the E-score was -0.297.
The E-score of `AGAACCAG` is reported as -0.133.
The E-score of `ACTCACCG` is reported as -0.114.
With `CAGGTAGC` the E-score was -0.292.
`CAGACTTC` has an E-score of -0.0435.
With `GAATTCGC` the E-score was -0.166.

Sample 3 — technique: RNA Bind-n-Seq; form: RNA; sample: in vitro; concentration: 365 nM; relative to: no-protein control; direction: higher = stronger binding
Target: RNA binding protein fox-1 homolog 2, RRM domain, GST-SBP tag (RBFOX2, Homo sapiens, UniProt O43251-10, residues 100-194)
Notes: natural RNA segment, single round, ends assumed
Residues (chain): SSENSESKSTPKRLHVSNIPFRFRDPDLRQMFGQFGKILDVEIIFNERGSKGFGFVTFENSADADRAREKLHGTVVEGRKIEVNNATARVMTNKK
Under “RBNS enrichment (R)”, `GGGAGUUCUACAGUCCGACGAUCUUGGCUAGACUUCAUAUCGUGGAAGUAUUGUCUAUUUCAGUGUGAAACUAUCUUGAAUUUGCAAAUAUAGUGUUAUAUUUUAUAAAGUUUUGUAAAAUCCCAAACAAUAUUGGAAUUCUCGGGUGCCAA` is recorded as 0.404.
For `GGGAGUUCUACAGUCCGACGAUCAUGUUCAGGGGAGAAGAGGUCACAGGUCAGGCCAGCUGCCCCAUCCUUUAGUUCGGGGUUAGCUCCCAGAACUGCCCUGCACCAUAAGCUGGUGAUUCUCCAUGCCUGUCUGGAAUUCUCGGGUGCCAA`, “RBNS enrichment (R)” read 0.449.
Under “RBNS enrichment (R)”, `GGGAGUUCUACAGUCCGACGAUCAGCUCUUUUAAUUGGUGACAGAUCAUGCGGUAUGUCCCUAUUACAAAUGUAAGUCUUGGAGAAGGGUCCUUCAUGGUGUCCACAUGUGCAGGCUCAGGUAGAGGUCUCAGUGGAAUUCUCGGGUGCCAA` is recorded as 0.287.
`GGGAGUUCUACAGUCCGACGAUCUAUGCUGCUUUAAACCUGGAAGUGGGAGUGAGAAGUUUGGAUUGCUGUCCACGCUUAGGAGCCAAGCCGGGAAUGCAUUAAUCAUUUCUUCGUUAACAGAGGAAUCUGCUUGGAAUUCUCGGGUGCCAA`: “RBNS enrichment (R)” 0.386.
`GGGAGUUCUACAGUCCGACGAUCGCAAAUCUCUUUUUAAAAAACUCUUUGGUGCACAAGUAACACAUUUGGCCACAAAACACCAAAGAAUUGUAGGCAGUGGCCCCUAUUGAGAAGUUUUCCGGUAGAGUUGGUGGAAUUCUCGGGUGCCAA` — result for “RBNS enrichment (R)”: 0.611.
`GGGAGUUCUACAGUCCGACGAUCAAAAAAUUACCCAGAUUGGCUCCAUGGAAAAGGAGGAACAGCGUUUCCGUAAAAUUGACUUUGUACUCUGAAAACGUCAAUUUAUAUUGAACUUGGAGGAGUUUGGCAAAUGGAAUUCUCGGGUGCCAA` — result for “RBNS enrichment (R)”: 0.318.
`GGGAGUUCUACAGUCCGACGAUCUCUCUUGGUUGAUUUCAUUCCCUUGCAUCUUUCCCCUGUGCUGACAGGGGGCAGAAGGCACAACCAUUUCCAUGGUGUGCCGAGAGAAGGAGCUGAGGUCAGCAAGCCAGUGGAAUUCUCGGGUGCCAA`: “RBNS enrichment (R)” 0.307.
`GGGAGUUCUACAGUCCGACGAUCAUUAGCUGAGUUUAGAGUACUUUCUGCUUAAUUAAUUUUUAUACUUAACUCUUCAGUAGAGGUUUACAAAGAGUACAAAGGUUAAAUUACAAAUUCAUUCCCAGCCUAGGUGGAAUUCUCGGGUGCCAA`: “RBNS enrichment (R)” 0.539.

Sample 4 — technique: RNA Bind-n-Seq; form: RNA; sample: in vitro; concentration: 1 µM; notes: whole 134-nt RNA, ends assumed; with: 150 mM KCl; relative to: input library; direction: higher = stronger binding
Target: Ras GTPase-activating protein-binding protein 1, C-terminal RGG region (G3BP1, Homo sapiens, UniProt Q13283)
Sequence of UniProt Q13283 (whole entry, looked up): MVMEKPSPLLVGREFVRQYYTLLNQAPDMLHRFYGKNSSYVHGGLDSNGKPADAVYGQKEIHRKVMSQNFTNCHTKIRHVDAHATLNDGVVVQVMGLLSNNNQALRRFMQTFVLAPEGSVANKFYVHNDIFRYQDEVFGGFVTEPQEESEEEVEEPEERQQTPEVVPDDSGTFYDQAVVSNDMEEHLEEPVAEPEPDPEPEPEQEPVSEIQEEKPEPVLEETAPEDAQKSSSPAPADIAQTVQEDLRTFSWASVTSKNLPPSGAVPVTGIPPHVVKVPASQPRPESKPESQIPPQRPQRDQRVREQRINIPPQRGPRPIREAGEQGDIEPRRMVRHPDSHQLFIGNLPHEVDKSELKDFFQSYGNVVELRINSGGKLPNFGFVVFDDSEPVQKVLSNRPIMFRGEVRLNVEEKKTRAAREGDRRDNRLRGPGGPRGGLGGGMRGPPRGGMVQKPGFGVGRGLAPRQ
`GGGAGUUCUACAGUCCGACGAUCUCCUGUGCUACACAUCGUAUGUACCGAAUCAAAUUUAAAUUUUUUUAAAUUUUUUUAAAAAAGUAUUAUGUUACGCCGUUCGGAUCUGCAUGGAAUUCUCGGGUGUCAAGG` gave a log2 enrichment of -1.45.
`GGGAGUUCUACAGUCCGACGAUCCCUGUGCUACACAUCGUAUGUACCGAAUCGGGGUUUUUUGGGUUUUUUGGUUUUUUGGGGAAAGUAUUAUGUUACGCCGUUCGGAUCUGCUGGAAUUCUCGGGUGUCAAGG` has a log2 enrichment of -1.54.
The log2 enrichment of `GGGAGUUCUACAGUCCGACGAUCUCAAGUCCUGUGCUACACAUCGUAUGUACCGAAUCGGGGCCGGGCCGGGCCGGGAAAGUAUUAUGUUACGCCGUUCGGAUCUGCACUUCCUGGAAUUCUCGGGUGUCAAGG` is reported as -0.0574.
`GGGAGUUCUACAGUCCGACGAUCCUCAAGUCCUGUGCUACACAUCGUAUGUACCGAAUCGGGUUGGGGUUGGUUGGGAAAGUAUUAUGUUACGCCGUUCGGAUCUGCACUUCCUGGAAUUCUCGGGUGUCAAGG` has a log2 enrichment of 0.029.
The log2 enrichment of `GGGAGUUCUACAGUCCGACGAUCGUCCUGUGCUACACAUCGUAUGUACCGAAUCGGGGAAAAAGGGGAGGGGAAAAAGGGGAAAGUAUUAUGUUACGCCGUUCGGAUCUGCACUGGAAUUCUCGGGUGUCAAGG` is reported as 1.11.
With `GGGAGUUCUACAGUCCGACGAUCAGUCCUGUGCUACACAUCGUAUGUACCGAAUCGGGAAAAAGGGAAAGGGAAAAAGGGAAAGUAUUAUGUUACGCCGUUCGGAUCUGCACUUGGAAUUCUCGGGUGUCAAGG` the log2 enrichment was 0.309.
`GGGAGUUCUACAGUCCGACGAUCACCAUGCAGGUGGAAAUCUUUGGGAAGUGGGGCAAGGGGGGGAUAGGGAGGGGGGUAACACUUUGGGAACAGGUGGUCCCAGGUCGUUUCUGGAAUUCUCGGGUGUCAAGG` has a log2 enrichment of -0.869.
For `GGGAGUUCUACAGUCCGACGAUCUCAAGUCCUGUGCUACACAUCGUAUGUACCGAAUCGGUUUGGUUUGGUUUUUGGAAAGUAUUAUGUUACGCCGUUCGGAUCUGCACUUCCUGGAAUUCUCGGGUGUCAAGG`, the log2 enrichment was -1.1.
For `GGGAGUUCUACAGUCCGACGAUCCCUGUGCUACACAUCGUAUGUACCGAAUCGGGAAAAAAAGGGAAAAAAAGGAAAAAAAGGGAAAGUAUUAUGUUACGCCGUUCGGAUCUGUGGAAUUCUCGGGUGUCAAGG`, the log2 enrichment was -1.89.

Some of these lines once more (sample 3):
Under “RBNS enrichment (R)”, `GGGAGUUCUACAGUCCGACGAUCUUGGCUAGACUUCAUAUCGUGGAAGUAUUGUCUAUUUCAGUGUGAAACUAUCUUGAAUUUGCAAAUAUAGUGUUAUAUUUUAUAAAGUUUUGUAAAAUCCCAAACAAUAUUGGAAUUCUCGGGUGCCAA` is recorded as 0.404.
For `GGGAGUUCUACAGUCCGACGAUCAUGUUCAGGGGAGAAGAGGUCACAGGUCAGGCCAGCUGCCCCAUCCUUUAGUUCGGGGUUAGCUCCCAGAACUGCCCUGCACCAUAAGCUGGUGAUUCUCCAUGCCUGUCUGGAAUUCUCGGGUGCCAA`, “RBNS enrichment (R)” read 0.449.
Under “RBNS enrichment (R)”, `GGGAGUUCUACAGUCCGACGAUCAGCUCUUUUAAUUGGUGACAGAUCAUGCGGUAUGUCCCUAUUACAAAUGUAAGUCUUGGAGAAGGGUCCUUCAUGGUGUCCACAUGUGCAGGCUCAGGUAGAGGUCUCAGUGGAAUUCUCGGGUGCCAA` is recorded as 0.287.
`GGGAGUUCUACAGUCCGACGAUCUAUGCUGCUUUAAACCUGGAAGUGGGAGUGAGAAGUUUGGAUUGCUGUCCACGCUUAGGAGCCAAGCCGGGAAUGCAUUAAUCAUUUCUUCGUUAACAGAGGAAUCUGCUUGGAAUUCUCGGGUGCCAA`: “RBNS enrichment (R)” 0.386.
`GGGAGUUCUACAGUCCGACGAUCGCAAAUCUCUUUUUAAAAAACUCUUUGGUGCACAAGUAACACAUUUGGCCACAAAACACCAAAGAAUUGUAGGCAGUGGCCCCUAUUGAGAAGUUUUCCGGUAGAGUUGGUGGAAUUCUCGGGUGCCAA` — result for “RBNS enrichment (R)”: 0.611.
`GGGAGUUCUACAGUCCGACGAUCAAAAAAUUACCCAGAUUGGCUCCAUGGAAAAGGAGGAACAGCGUUUCCGUAAAAUUGACUUUGUACUCUGAAAACGUCAAUUUAUAUUGAACUUGGAGGAGUUUGGCAAAUGGAAUUCUCGGGUGCCAA` — result for “RBNS enrichment (R)”: 0.318.
`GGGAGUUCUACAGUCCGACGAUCUCUCUUGGUUGAUUUCAUUCCCUUGCAUCUUUCCCCUGUGCUGACAGGGGGCAGAAGGCACAACCAUUUCCAUGGUGUGCCGAGAGAAGGAGCUGAGGUCAGCAAGCCAGUGGAAUUCUCGGGUGCCAA`: “RBNS enrichment (R)” 0.307.
`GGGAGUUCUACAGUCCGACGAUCAUUAGCUGAGUUUAGAGUACUUUCUGCUUAAUUAAUUUUUAUACUUAACUCUUCAGUAGAGGUUUACAAAGAGUACAAAGGUUAAAUUACAAAUUCAUUCCCAGCCUAGGUGGAAUUCUCGGGUGCCAA`: “RBNS enrichment (R)” 0.539.
